Measurements pooled from the literature.
A part holds a random share of what one study measured.

Study 1 — method: protein binding microarray; form: double-stranded DNA, one strand shown; matrix: in vitro; tested at: not given; relative to: not given; direction: higher = stronger binding
Target: Histone acetyltransferase KAT6A, both winged helices, GST fusion (KAT6A, Homo sapiens, UniProt Q92794, residues 1-181)
Setting: 8-mer, flanks averaged, mean of 2 arrays, mostly near background
Target sequence (chain): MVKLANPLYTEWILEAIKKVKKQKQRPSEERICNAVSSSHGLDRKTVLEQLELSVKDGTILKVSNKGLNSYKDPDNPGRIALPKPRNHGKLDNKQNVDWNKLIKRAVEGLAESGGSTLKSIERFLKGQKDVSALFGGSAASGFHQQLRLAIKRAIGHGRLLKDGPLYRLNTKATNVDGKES
Oligonucleotide	E-score
AGCGACAG	0.134
CCTGGATA	-0.0164
CACCGCAC	0.122
CATTACTA	-0.0438
ACTCCGCT	0.075
CCTAATCC	-0.112
CATTGTTA	-0.144
ATCCTACC	0.00147

Study 2 — method: RNA Bind-n-Seq; form: RNA; matrix: in vitro; tested at: 200 nM; setting: whole 134-nt RNA, ends assumed; together with: 150 mM LiCl; relative to: input library; direction: higher = stronger binding; library: 7-deaza-guanosine replaces G
Target: Fragile X messenger ribonucleoprotein 1, C-terminal low-complexity region (Fmr1, Mus musculus, UniProt P35922)
Oligonucleotide	log2 enrichment
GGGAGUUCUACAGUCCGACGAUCUGGCCCUGGUGGCAUGCGGGGAGGAAGAGAUGGCCUCAUGGAUCGUGGUGGUCCCGGUGGAAUGUUCAGAGGUGGCCGUGGUGGAGACAGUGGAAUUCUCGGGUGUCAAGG	-0.145
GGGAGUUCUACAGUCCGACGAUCCAAGUCCUGUGCUACACAUCGUAUGUACCGAAUCGGGAGGGUGGGUUUUUUUGGGAAAGUAUUAUGUUACGCCGUUCGGAUCUGCACUUCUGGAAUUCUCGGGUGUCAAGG	-0.73
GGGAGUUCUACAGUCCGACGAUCCAAGUCCUGUGCUACACAUCGUAUGUACCGAAUCGGGUGGGUGGGUUUUUUUGGGAAAGUAUUAUGUUACGCCGUUCGGAUCUGCACUUCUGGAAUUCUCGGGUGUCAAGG	-0.802
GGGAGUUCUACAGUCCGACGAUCAGUCCUGUGCUACACAUCGUAUGUACCGAAUCGGGAGGGAAAAAAAGGGUUUUUGGGAAAGUAUUAUGUUACGCCGUUCGGAUCUGCACUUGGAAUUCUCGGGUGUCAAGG	-2.03
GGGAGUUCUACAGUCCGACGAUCAGGGAGGUGGAUUUUGUUUAUUUUUUUAGCUCAUUUCCAGGGGUGGGAAUUUUUUUUUAAUAUGUGUCAUGAAUAAAGUUGUUUUUGAAAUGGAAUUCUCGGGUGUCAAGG	0.657
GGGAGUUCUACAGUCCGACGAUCCAAGUCCUGUGCUACACAUCGUAUGUACCGAAUCGGCCCCGGGCCCCGGCCCCGGAAAGUAUUAUGUUACGCCGUUCGGAUCUGCACUUCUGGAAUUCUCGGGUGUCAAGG	-0.723

Study 3 — mode: inhibitor; tested at: 20 µM
Target: Replicase polyprotein 1ab, nsp13 helicase (rep, Severe acute respiratory syndrome coronavirus 2, UniProt P0DTD1)
Structure (SMILES)	inhibition [%]
CO/N=C1\CN(c2nc3c(cc2F)c(=O)c(C(=O)O)cn3C2CC2)CC1CN (stereo not shown)	9.34
O=C1NN(C(=O)Nc2ccc(Br)cc2)[C@@H](c2ccccc2)[C@@H]1c1ccccc1	3.44
CCCCCCCCCCCCCCC[C@@H](O)[C@@H](N)CO	3.08
Cn1ccnc1S	3.13
CN1[C@@H]2CC(O)C[C@H]1[C@@H]1O[C@@H]12 (stereo partly shown)	-0.48
N[C@@H](CSC(c1ccccc1)(c1ccccc1)c1ccccc1)C(=O)O	0.67
C[C@@H](NCCCc1cccc(C(F)(F)F)c1)c1cccc2ccccc12	4.88
O=C(O)c1ccc(Nc2ncc3c(n2)-c2ccc(Cl)cc2C(c2c(F)cccc2F)=NC3)cc1	11.8
Clc1ccc(C(Cn2ccnc2)OCc2c(Cl)cccc2Cl)c(Cl)c1 (stereo not shown)	3.7
O=C(Cc1ccc(-c2ccc(OCCN3CCOCC3)cc2)cn1)NCc1ccccc1	0.79
CC(=O)OCC(CCn1cnc2cnc(N)nc21)COC(C)=O	1.86
O=c1ccc2cc3ccoc3cc2o1	-0.63
C[C@]12CCC(=O)C=C1C=C[C@@H]1[C@@H]2CC[C@@]2(C)[C@H]1CC[C@@]21CCC(=O)O1	8.61
COCCOCCOc1ccc(C2=N[C@@](C)(C(=O)O)CS2)c(O)c1	-2.98
COc1ccc(-c2cc(=O)c3c(O)cc(O)cc3o2)cc1O	1.81
CC1=C(C(=O)Nc2cc3cn[nH]c3cc2F)C(c2ccc(C(F)(F)F)cc2)CC(=O)N1 (stereo not shown)	4.21
CC1Sc2c(C(=O)O)c(=O)c3cc(F)c(N4CCNCC4)cc3n21 (stereo not shown)	5.84
Nc1ccc(C(=O)O)c(O)c1	10.1
c1ccc(-c2nn3c(c2-c2ccnc4cc(OCCN5CCOCC5)ccc24)CCC3)nc1	2
CC(N)[C@]12C[C@H]3C[C@H](C[C@H](C3)C1)C2 (stereo partly shown)	5.05
Cc1cc(CN2CCN(c3c(Br)cnc4nc(-c5ccc(N6CCN(C)CC6)cc5)[nH]c34)CC2)no1	2.95
CCS(=O)(=O)N(C)[C@H]1c2cc(C#N)ccc2OC(C)(C)[C@@H]1O (racemic)	1.41
CN1C(=O)CN=C(c2ccccc2)c2cc(Cl)ccc21	-14.1
CNCC(O)c1ccc(O)cc1 (stereo not shown)	10
CC1(C)S[C@@H]2[C@H](NC(=O)Cc3ccccc3)C(=O)N2[C@H]1C(=O)O	-4.34

Study 4 — cell line: HEK-293T/ACE2; tested at: 10 µM; time: 16 h; relative to: vehicle
Structure (SMILES)	viability [%]
CC(C)(Oc1ccc(C(=O)c2ccc(Cl)cc2)cc1)C(=O)O	99.6
CCCCCOC(=O)Nc1nc(=O)n([C@@H]2O[C@H](C)[C@@H](O)[C@H]2O)cc1F	98.9
C[C@]12CC[C@H]3[C@@H](CCC4=CC(=O)CC[C@@]43C)[C@@H]1CC[C@@H]2O	101

Study 5 — method: universal PBM; form: double-stranded DNA, one strand shown; matrix: in vitro; tested at: 600 nM; direction: higher = stronger binding
Target: Sal-like protein 4, full length isoform A (SALL4, Homo sapiens, UniProt Q9UJQ4, residues 1-1053)
UniProt Q9UJQ4, sequence (whole entry, looked up): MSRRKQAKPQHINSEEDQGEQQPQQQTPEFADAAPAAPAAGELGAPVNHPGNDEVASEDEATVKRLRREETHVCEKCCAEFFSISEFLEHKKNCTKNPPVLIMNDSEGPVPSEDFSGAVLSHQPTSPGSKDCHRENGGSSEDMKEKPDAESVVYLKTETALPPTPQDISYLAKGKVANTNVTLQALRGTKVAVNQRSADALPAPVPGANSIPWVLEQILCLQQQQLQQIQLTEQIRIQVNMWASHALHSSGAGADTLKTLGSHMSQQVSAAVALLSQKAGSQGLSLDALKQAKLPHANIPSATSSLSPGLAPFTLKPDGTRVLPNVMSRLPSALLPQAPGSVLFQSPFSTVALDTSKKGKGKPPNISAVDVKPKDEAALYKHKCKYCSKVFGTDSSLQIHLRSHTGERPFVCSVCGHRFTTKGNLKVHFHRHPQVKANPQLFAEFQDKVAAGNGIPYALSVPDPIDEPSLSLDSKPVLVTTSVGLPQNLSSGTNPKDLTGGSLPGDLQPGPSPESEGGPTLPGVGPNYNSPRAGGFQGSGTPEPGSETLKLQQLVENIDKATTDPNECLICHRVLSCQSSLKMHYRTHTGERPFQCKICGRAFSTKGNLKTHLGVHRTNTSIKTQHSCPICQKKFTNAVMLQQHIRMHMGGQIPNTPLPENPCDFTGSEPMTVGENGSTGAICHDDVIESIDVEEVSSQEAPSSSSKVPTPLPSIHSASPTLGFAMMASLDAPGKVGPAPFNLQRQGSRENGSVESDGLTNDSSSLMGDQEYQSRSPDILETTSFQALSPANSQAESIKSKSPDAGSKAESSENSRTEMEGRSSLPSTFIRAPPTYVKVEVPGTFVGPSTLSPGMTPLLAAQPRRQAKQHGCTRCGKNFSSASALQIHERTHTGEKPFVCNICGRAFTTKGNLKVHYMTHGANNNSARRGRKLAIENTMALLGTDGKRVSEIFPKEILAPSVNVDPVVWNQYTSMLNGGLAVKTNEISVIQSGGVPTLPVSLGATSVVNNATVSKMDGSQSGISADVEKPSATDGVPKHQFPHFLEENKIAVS
Setting: 8-mer, flanks averaged, mean of replicates
Oligonucleotide	E-score
CTAGCGGC	-0.304
CATAAAAC	0.277
CCCACAAA	0.121
ATCGAAGC	-0.0685
AAGCCTCC	-0.16
CTTGGATA	0.0624
ACCCGCTC	-0.335
CCGCTAGG	-0.235

Single results of other studies — tested at: 10 µM
SMILES	tested on	test	system	conditions	inhibition [%]
Cc1ccc(C(=O)n2nc(-c3cccnc3)nc2N)cc1	SARS-CoV-2	cytopathic effect	Vero E6	–	-6.5
O=c1sn(-c2cccc3ccccc23)c(=O)n1Cc1ccccc1	chymotrypsin	enzyme activity, inhibitor	–	with DTT	30.7

Excerpt of the above (study 3):
Structure (SMILES)	inhibition [%]
CCS(=O)(=O)N(C)[C@H]1c2cc(C#N)ccc2OC(C)(C)[C@@H]1O (racemic)	1.41
O=C(Cc1ccc(-c2ccc(OCCN3CCOCC3)cc2)cn1)NCc1ccccc1	0.79
CC1Sc2c(C(=O)O)c(=O)c3cc(F)c(N4CCNCC4)cc3n21 (stereo not shown)	5.84
CO/N=C1\CN(c2nc3c(cc2F)c(=O)c(C(=O)O)cn3C2CC2)CC1CN (stereo not shown)	9.34
